Assay results of several laboratories.
Compare with care: the assays were run in different laboratories. Substitutions count along the parent as printed. ± marks the error that the study gave.
P1: JPH2 N-terminal region (Mus musculus); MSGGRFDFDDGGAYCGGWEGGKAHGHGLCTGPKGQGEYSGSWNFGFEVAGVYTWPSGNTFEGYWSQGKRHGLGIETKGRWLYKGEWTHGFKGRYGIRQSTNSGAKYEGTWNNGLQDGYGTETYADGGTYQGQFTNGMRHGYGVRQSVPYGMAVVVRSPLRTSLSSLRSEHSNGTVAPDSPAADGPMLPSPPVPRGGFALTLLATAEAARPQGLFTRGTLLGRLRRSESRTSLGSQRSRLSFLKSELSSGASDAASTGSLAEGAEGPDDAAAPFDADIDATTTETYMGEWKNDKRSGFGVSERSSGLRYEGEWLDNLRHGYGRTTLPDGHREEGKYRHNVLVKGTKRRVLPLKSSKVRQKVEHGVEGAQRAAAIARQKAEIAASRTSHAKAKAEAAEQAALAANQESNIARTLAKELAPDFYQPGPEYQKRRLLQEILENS
P2: CHMP1B residues 126-199 (Homo sapiens); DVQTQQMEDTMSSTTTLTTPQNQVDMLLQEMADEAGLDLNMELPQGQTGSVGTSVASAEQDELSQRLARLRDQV; partner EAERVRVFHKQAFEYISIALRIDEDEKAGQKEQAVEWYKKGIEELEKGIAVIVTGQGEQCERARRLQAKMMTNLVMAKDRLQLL
P3: C1ql1 globular C1q domain (Mus musculus); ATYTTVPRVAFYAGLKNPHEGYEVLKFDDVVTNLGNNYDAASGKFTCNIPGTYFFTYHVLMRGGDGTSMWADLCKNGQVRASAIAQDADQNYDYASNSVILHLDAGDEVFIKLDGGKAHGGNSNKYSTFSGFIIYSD
P4: RPC82 (Saccharomyces cerevisiae); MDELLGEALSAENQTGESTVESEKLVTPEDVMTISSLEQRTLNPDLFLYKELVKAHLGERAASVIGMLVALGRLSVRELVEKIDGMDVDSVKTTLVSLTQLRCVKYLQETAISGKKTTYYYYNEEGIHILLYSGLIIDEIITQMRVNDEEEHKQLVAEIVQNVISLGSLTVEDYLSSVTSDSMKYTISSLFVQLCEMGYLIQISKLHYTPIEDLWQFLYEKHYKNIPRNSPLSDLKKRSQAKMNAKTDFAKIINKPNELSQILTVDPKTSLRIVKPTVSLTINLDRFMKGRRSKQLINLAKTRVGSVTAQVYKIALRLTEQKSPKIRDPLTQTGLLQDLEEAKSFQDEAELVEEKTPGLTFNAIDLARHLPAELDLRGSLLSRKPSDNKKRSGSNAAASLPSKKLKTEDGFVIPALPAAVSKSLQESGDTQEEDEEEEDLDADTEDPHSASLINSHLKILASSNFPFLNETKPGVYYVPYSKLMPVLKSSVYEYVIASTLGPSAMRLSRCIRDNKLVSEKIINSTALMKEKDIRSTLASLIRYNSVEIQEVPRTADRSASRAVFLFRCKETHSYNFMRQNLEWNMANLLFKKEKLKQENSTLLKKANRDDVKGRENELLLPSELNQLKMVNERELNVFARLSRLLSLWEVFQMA
P5: DPPA3 residues 76-128 plus Trp (Mus musculus); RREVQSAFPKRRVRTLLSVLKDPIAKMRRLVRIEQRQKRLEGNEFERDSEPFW; partner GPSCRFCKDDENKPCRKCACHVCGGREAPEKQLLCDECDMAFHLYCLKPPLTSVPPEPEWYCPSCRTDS
P6: Tln1 residues 1655-1822 (Mus musculus); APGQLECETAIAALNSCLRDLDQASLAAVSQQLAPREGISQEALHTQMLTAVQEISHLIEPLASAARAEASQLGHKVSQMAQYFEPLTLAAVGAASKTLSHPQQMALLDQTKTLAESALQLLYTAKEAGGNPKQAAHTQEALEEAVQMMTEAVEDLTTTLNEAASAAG
UniProt P06612, sequence (whole entry, looked up): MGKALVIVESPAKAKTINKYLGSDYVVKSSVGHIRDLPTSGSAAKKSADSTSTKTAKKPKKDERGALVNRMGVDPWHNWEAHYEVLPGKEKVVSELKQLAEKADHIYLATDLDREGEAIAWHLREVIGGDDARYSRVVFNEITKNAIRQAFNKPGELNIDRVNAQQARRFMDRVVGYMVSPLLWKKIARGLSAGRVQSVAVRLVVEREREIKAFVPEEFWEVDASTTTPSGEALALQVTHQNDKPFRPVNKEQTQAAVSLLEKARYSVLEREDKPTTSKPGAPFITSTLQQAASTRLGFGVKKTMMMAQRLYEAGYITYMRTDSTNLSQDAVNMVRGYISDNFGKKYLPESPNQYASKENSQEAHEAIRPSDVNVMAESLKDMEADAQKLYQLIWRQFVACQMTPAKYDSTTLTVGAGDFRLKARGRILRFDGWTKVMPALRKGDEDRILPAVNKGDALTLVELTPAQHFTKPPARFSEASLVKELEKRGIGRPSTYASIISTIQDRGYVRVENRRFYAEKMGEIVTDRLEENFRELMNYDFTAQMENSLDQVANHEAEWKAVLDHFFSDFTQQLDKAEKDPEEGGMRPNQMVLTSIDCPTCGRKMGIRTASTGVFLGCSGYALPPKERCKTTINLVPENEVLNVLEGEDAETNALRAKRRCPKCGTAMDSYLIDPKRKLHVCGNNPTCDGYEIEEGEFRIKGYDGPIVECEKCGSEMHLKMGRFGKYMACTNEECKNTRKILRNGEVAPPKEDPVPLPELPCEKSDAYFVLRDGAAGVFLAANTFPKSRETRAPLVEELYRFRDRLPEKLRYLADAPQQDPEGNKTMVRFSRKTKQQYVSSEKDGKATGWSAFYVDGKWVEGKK

Molecule = FVGEFFTDV; target or system = HLA class I histocompatibility antigen, A alpha chain, allele A*11:01 (Homo sapiens, UniProt P04439); assay = binding; system = peptide, human cells; quantity = IC50; result = no binding
Molecule = P1 S165Q; target or system = CACNA1C JBM (Mus musculus); assay = Strep pull-down; conditions = 3 µM, read off a plot; how to read = relative to: unchanged protein, higher = more binding; quantity = relative binding; result = 100%
Molecule = P2 E59A; target or system = SPAST MIT domain, 112-195 (Homo sapiens); assay = SPR; quantity = Kd; result = > 152 µM
Molecule = GGUUUGUUACUGAUAAAGCAGGCAAGACC (ssRNA (Bacillus subtilis); hairpin, two internal loops); target or system = licT 1-56 N9H (Bacillus subtilis, UniProt P39805); assay = SPR; system = folded RNA; quantity = Kd; result = 32 ± 12 µM
Molecule = GCCCTGAAAGATTATGGAATGCGATTAGGGTAAAGGAAGAGAGCATAATCTTTCAGGGC (hairpin DNA; hairpin, 16 bp stem, 27 nt loop); target or system = topA full length assumed (Escherichia coli, UniProt P06612); assay = fluorescence anisotropy; system = folded DNA; conditions = together with: EDTA; quantity = Kd; result = 0.00031 ± 5e-05 µM
Molecule = P3 D114A; target or system = ADGRB3 CUB domain (Homo sapiens); assay = ITC; conditions = together with: Ca2+ 2 mM; quantity = Kd; result = 3.5 µM
Molecule = P4 K403A K404A L405A K406A E408A D409A; target or system = BRF1 (Saccharomyces cerevisiae); assay = immobilized template assay; how to read = relative to: unchanged protein, higher = more partner bound; quantity = relative binding; result = 0.49
Molecule = P1 A399S; target or system = CACNA1C JBM (Mus musculus); assay = ITC; quantity = Kd; result = 21.6 µM
Molecule = P5 M27P E34P; target or system = UHRF1 PHD finger 304-372 (Mus musculus); assay = ITC; quantity = Kd; result = > 1.9 µM
Molecule = GGAUUGUUACUGAUAAAGCAGGCAAAACC (ssRNA; hairpin, two internal loops); target or system = licT 1-56 R27A (Bacillus subtilis, UniProt P39805); assay = SPR; system = folded RNA; quantity = Kd; result = 1.8 ± 0.72 µM
Molecule = P6 Y123A; target or system = TLN1 F3 domain, 309-400 (Mus musculus); assay = NMR titration; quantity = Kd; result = 20 µM

A few entries again:
Molecule = GGAUUGUUACUGAUAAAGCAGGCAAAACC (ssRNA; hairpin, two internal loops); target or system = licT 1-56 R27A (Bacillus subtilis, UniProt P39805); assay = SPR; system = folded RNA; quantity = Kd; result = 1.8 ± 0.72 µM
